# Experimental data pooled from the literature.
# Every numbered part comes from another study and shows a few of its results, in no order.

# Set 1
# Molecule: PhoQ, residues 284 288 289 292 302 303 TTSMTC
# Technique: Sort-seq
# Measured: YFP reporter
# Medium: E. coli
# Setting: PhoQ-PhoP variant library
# Together with: 10 µM Mg2+
# Baseline: high Mg2+ state
# Reading: higher = stronger signaling
target,fold induction
"PhoP, residues 12 14 15 18 19 TQAML (Escherichia coli, UniProt P23836)",14.1
"PhoP, residues 12 14 15 18 19 NQCAL (Escherichia coli, UniProt P23836)",18.4
"PhoP, residues 12 14 15 18 19 LHTVL (Escherichia coli, UniProt P23836)",16.9

# Set 2
# Target: RNA binding protein fox-1 homolog 2, RRM domain, GST-SBP tag (RBFOX2, Homo sapiens, UniProt O43251-10, residues 100-194)
# Technique: RNA Bind-n-Seq
# Form: RNA
# Medium: in vitro
# Tested at: 365 nM
# Setting: natural RNA segment, single round, ends assumed
# Baseline: no-protein control
# Reading: higher = stronger binding
# Constant ends, left off below: GGGAGUUCUACAGUCCGACGAUC … UGGAAUUCUCGGGUGCCAA
# Target sequence (chain): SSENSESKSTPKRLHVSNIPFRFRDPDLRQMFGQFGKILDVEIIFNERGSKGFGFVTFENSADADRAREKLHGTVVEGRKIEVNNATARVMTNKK
Strand,RBNS enrichment (R)
GCUUCUGUAGAUAAUGUCUGUGGAGUAAAUAUUUGACAGGCCAGAACUUGAGUCUUUUGCCUUGCCUUUAUUACAUGUAAAUUUUGAAUCUCGUGACCAGUGAUUUGGAU,0.686
UUGCCUGGGCCUUCUGCCUUAUACUUUGGGAUAAAUGGGGUGUAGGGGAUAUAUUCACUACUUUGGGAUACCCCCAAACCUGUUCUGACGUCGUGAGUGUCAAAUGUGUC,0.303
UGCAGAGAGCCCCAUUAUCUCCUCUGGACCUGGGCCUUCGAACACCUGGGGGGUAUUUUUUGCCCUCCGUUGGGACACCAGUCUUCGGUGUGUGGAAAUGUGGAAGUCCU,0.229
GUAUAGAUUUCUAAGAACCAACACUACUCAGUCUCCUGCUAGUCUGACUCCUGAAGCAUCAGCCCUUGUCAUACUGUAUUGACUGUGUACGUGCCUUUCACCUUGAGCAU,0.304
AGCCCUGUAGGGGGCUGUGCAGAUGUGGGUGUGCCACAGGGAGGGUGGCCCCUAGCCAUGUAUCCAUUGGCUGUUUUGGCUUCAGAUUCAACCAAGAUCUGCCUGACUAA,0.376
AUAUUUCAAAUUGCACACGUCACUCCAGCAUCUCUGUAAAAUAAUUGGAAUGAAAAUACUUCUUGCACUUAAACACUGCACAUGCCGUACUUUGAGGUUAGUCUGAAUCU,1.35
CUCUCUGUGAAUACCUACCCCCUUCUGGCCACGGUGCCAUACCUGUUUCUUCCUGUGACUGUAGAGACAGUUCUAGACCUUUGUGAUAGAACUAAAAUGCUCUCUGUACU,0.268
GCUGCCACCACCCUCCUGUCUGCCUCUUCAAAGUCUCCUGUGACAUUUUUUCUUUGGUCAGAAGCCAGGAACUGGUGUCAUUCCUUAAAAGAUACGUGCCGGGGCCAGGU,0.397
ACGGUUUCCAAUGCGCCGUCACCAUCUCCACCUGCCACCAAACCACCAGCAGAGUAGCCGCCGCUGCUGUGAGCCUGGGGACGACAUGGCAGGCUGGUCCCCCUCCGUGA,0.269

# Set 3
# Target: Hepatocyte nuclear factor 3-alpha (Foxa1, Mus musculus, UniProt P35582, residues 1-468, full length assumed)
# Technique: EMSA with sequencing
# Form: double-stranded DNA, one strand shown
# Medium: in vitro
# Tested at: 10 and 20 nM
# Setting: whole designed probe, mean of two concentrations, ends assumed
# Baseline: negative control set to 0
# Reading: higher = stronger binding
# Target sequence (chain): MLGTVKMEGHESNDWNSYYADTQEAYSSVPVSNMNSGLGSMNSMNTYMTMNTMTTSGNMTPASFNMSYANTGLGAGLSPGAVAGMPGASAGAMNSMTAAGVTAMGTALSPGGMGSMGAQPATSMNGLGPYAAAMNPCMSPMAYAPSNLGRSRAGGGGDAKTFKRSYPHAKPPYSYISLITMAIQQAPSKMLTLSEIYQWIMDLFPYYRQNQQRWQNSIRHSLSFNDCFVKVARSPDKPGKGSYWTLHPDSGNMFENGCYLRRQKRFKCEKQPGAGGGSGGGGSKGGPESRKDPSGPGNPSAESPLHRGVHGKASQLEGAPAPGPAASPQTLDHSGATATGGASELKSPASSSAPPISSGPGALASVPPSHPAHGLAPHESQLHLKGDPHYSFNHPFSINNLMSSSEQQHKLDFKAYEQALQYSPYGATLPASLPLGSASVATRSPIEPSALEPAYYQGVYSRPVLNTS
Strand,normalised bound fraction [ratio]
GTGAGCGGTGCCCATTGATGGGGAACACTCGTATACTTATGTGAATGTATATATTTATGTGTTGATAAATAAAATGATACACAAAAATTAGAAAATAACATTGAAAGACTGAACATAAAAGTAAACAAGAAGAGATTAATTCTCGAATGCACAGTTTAAAAAGAATCAAAAGTATATCTTCAAGCTCCTTAGAATATAATGAAAATGGGGACTTATAATTTTCACTGGGATCGTGGGGAC,0.491
GTGAGCGGTGCCCATTGATGGGGAACATCCACGAACCTGGCCCTGTCTGGTAACCACAGTGAACCATCGCAAGATACAGCACTATGTGCCCATAATGACTCACGTTGGGCTGGAACCAGTGTTGACACATCACATCCTCAGGGACACGGAAGTGTACTTGTTTTTGGAGAGGGACTAGACCTTCATCCTTGAGGTGAAGAAGATTTTCTCTCCAGGGTGTTTCACTGGGATCGTGGGGAC,0.105
GTGAGCGGTGCCCATTGATGGGGAACGAACCTCTCCTTTTTCTAAAGACTTTTATAGGCATTTTTTTTTCTTCTTCTCAGCATGTGAACCAATGTGTAACTCAAATAGATGTTACTTTGCTGTTTACTTAGATTGTTTTAAAAGGCTAGCTGTGTGGAGGAATGAGGAAGGAAGGGAGGCGGGAGTGGCTGGAGTTTTTTTTTTTCTCTGTTGACCTAATTTCACTGGGATCGTGGGGAC,0.348
GTGAGCGGTGCCCATTGATGGGGAACGACGGGCACCAGGAGCCCTGTGTCCTCTGCCTTGCAGGTGTTTAGGGAACATTGTTCAGACTGGAAGGAAGAGCCACGTGAAAATGCCCTTTCAGATTACTCTGCTGGGAAGGATATGAAGCCAAACAGAACCAGCTACGGGAGTCTTTCGACCGCAAGACAAAAGGTCCTTTGCCCCCACTACCTGCAACTTTTTCACTGGGATCGTGGGGAC,-0.0393

# Set 4
# Target: Centromere-binding protein 1, full length, His-tagged (CBF1, Saccharomyces cerevisiae, UniProt P17106, residues 1-351)
# UniProt P17106, sequence (whole entry, looked up): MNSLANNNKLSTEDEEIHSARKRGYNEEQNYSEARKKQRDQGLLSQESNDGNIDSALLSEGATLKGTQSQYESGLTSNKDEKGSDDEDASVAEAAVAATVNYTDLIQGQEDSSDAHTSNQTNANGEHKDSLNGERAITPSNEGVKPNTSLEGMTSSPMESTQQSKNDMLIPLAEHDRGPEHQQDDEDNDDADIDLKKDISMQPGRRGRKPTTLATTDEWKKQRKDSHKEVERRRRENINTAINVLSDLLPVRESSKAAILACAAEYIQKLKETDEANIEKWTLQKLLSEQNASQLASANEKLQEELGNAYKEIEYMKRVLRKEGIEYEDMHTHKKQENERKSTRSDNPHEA
# Technique: competition protein-binding microarray
# Form: double-stranded DNA, one strand shown
# Medium: in vitro
# Tested at: 2 µM
# Setting: whole 60-bp probe, lowest competitor level
# Together with: Pho4 competitor, 0.05 µM
# Reading: higher = stronger binding
# Constant ends, left off below: … GTCTTGATTCGCTTGACGCTGCTG
Strand,fluorescence intensity [a.u.]
TGCGCAACAACTTGTCACAAAACTTTATGTCTAGAA,76.1
AGATAGAAGATCAAATCCGTGCCAGAACCGCCCTGC,66.5
AAGCGCAGGAGGAGCAGCGTGGCGCAACCTTAAGGC,50.1
CTTCTGTAAATTTGGTTTGTGGGTGGACGCGCCCCG,91.1
GGTCTTCTTGTTTTTCACCTGCTCGACAGCTCTTTG,71.9
ACCGAAATTTCTCCACACGTGATGGTAAGTGTATTT,3500
CTAACGAAGGTTTGATAGGTGGGTGACAAGCCAAGT,65.8
